Published values from different studies.
Lines come from different studies, so protocols differ. Numbers after ± are the reported error.

For N=C(N)NCCC[C@@H]1NC(=O)[C@H](CCCCNC(=O)CCOCCOCCOCCOCCNC(=O)CN2CCN(CC(=O)O)CCN(CC(=O)O)CCN(CC(=O)O)CC2)NC(=O)[C@@H](Cc2ccccc2)NC(=O)[C@H](CC(=O)O)NC(=O)CNC1=O [indium-111 labelled], “tumour to tissue ratio” read 50.6 ± 5.24 (athymic nude mice, female, U-87 MG glioma xenograft, tumour and brain; intravenous, 24 h; reference: tumour over brain).
With N=C(N)NCCC[C@@H]1NC(=O)[C@H](CCCCNC(=O)CNC(=O)CNC(=O)CNC(=O)CC[C@H](NC(=O)c2ccc(NN=Cc3ccccc3S(=O)(=O)O)nc2)C(=O)NCC(=O)NCC(=O)NCC(=O)NCCCC[C@@H]2NC(=O)[C@@H](Cc3ccccc3)NC(=O)[C@H](CC(=O)O)NC(=O)CNC(=O)[C@H](CCCNC(=N)N)NC2=O)NC(=O)[C@@H](Cc2ccccc2)NC(=O)[C@H](CC(=O)O)NC(=O)CNC1=O [technetium-99m labelled] the tumour uptake was 7.74 ± 1.25 %ID/g (female athymic nu/nu mice, U-87 MG glioma xenograft, tumour; intravenous, 120 min post-injection).
N=C(N)NCCC[C@@H]1NC(=O)[C@H](CCCCNC(=O)CC[C@H](NC(=O)CCOCCOCCOCCOCCNC(=O)CN2CCN(CC(=O)O)CCN(CC(=O)O)CCN(CC(=O)O)CC2)C(=O)NCCCC[C@@H]2NC(=O)[C@@H](Cc3ccccc3)NC(=O)[C@H](CC(=O)O)NC(=O)CNC(=O)[C@H](CCCNC(=N)N)NC2=O)NC(=O)[C@@H](Cc2ccccc2)NC(=O)[C@H](CC(=O)O)NC(=O)CNC1=O [indium-111 labelled] — result for “tumour to tissue ratio”: 9.8 ± 0.78 (athymic nude mice, female, U-87 MG glioma xenograft, tumour and blood; intravenous, 1 h; reference: tumour over blood).
With N=C(N)NCCC[C@@H]1NC(=O)[C@H](CCCCNC(=O)CNC(=O)CNC(=O)CNC(=O)c2ccc(NN=Cc3ccccc3S(=O)(=O)O)nc2)NC(=O)[C@@H](Cc2ccccc2)NC(=O)[C@H](CC(=O)O)NC(=O)CNC1=O [technetium-99m labelled] the tumour uptake was 3.03 ± 0.54 %ID/g (female athymic nu/nu mice, U-87 MG glioma xenograft, tumour; intravenous, 120 min post-injection).
CC[C@@]1(OC(=O)CCC(=O)NCCCC[C@H](NC(=O)[C@H](Cc2ccccc2)NC(=O)[C@H](Cc2ccccc2)NC(=O)CCSC2=C(/C=C/C3=[N+](C)c4ccccc4C3(C)C)CCC/C2=C\C=C2\N(C)c3ccccc3C2(C)C)C(=O)N[C@@H](CCCCNC(=O)CCCC[C@@H]2SC[C@@H]3NC(=O)N[C@@H]32)C(=O)O)C(=O)OCc2c1cc1n(c2=O)Cc2cc3ccccc3nc2-1 — result for “tumour to normal tissue ratio”: 6.6 (fluorescence imaging; BALB/c nude mice with 4T1 tumour; intravenous, 0.05 µmol/kg, 12 h post injection; reference: tumour over healthy tissue).
For CCCC[C@H](NC(=O)CNC(=O)CNC(=O)c1ccc(NN)nc1)C(=O)N[C@H]1CC(=O)NCCCC[C@@H](C(N)=O)NC(=O)[C@H](Cc2c[nH]c3ccccc23)NC(=O)[C@H](CCCNC(=N)N)NC(=O)[C@@H](Cc2ccccc2)NC(=O)[C@H](Cc2c[nH]cn2)NC1=O [technetium-99m labelled], “tumour radioactivity retained” read 93.6% (C57 mice bearing B16/F1 melanoma; dose not given, 4 h post-injection; reference: tumour uptake at 2 h).
For N=C(N)NCCC[C@@H]1NC(=O)[C@H](CCCCNC(=O)CNC(=O)CNC(=O)CNC(=O)CC[C@H](NC(=O)CCOCCOCCOCCOCCNC(=O)CC[C@H](NC(=O)CN2CCN(CC(=O)O)CCN(CC(=O)O)CCN(CC(=O)O)CC2)C(=O)NCCOCCOCCOCCOCCC(=O)N[C@@H](CCC(=O)NCC(=O)NCC(=O)NCC(=O)NCCCC[C@@H]2NC(=O)[C@@H](Cc3ccccc3)NC(=O)[C@H](CC(=O)O)NC(=O)CNC(=O)[C@H](CCCNC(=N)N)NC2=O)C(=O)NCC(=O)NCC(=O)NCC(=O)NCCCC[C@@H]2NC(=O)[C@@H](Cc3ccccc3)NC(=O)[C@H](CC(=O)O)NC(=O)CNC(=O)[C@H](CCCNC(=N)N)NC2=O)C(=O)NCC(=O)NCC(=O)NCC(=O)NCCCC[C@@H]2NC(=O)[C@@H](Cc3ccccc3)NC(=O)[C@H](CC(=O)O)NC(=O)CNC(=O)[C@H](CCCNC(=N)N)NC2=O)NC(=O)[C@@H](Cc2ccccc2)NC(=O)[C@H](CC(=O)O)NC(=O)CNC1=O [indium-111 labelled], “tumour to tissue ratio” read 3.14 ± 0.84 (athymic nude mice, female, U-87 MG glioma xenograft, tumour and kidney; intravenous, 72 h; reference: tumour over kidney).
For CSCC[C@H](NC(=O)[C@H](CC(C)C)NC(=O)[C@H](Cc1c[nH]cn1)NC(=O)CNC(=O)[C@@H](NC(=O)[C@H](C)NC(=O)[C@H](Cc1c[nH]c2ccccc12)NC(=O)[C@H](CCC(N)=O)NC(=O)CCCCCCCNC(=S)Nc1ccc(C[C@H]2CN(CC(=O)O)CCN(CC(=O)O)CCN2CC(=O)O)cc1)C(C)C)C(N)=O [copper-64 labelled], the tumour uptake was 2.76 %ID/g (female SCID mice, PC-3 xenograft, tumour; intravenous, 0.5 MBq, 1 h).
For C[C@@H]1NC(=O)[C@H](CCC(=O)O)NC(=O)CNC(=O)[C@H](CC(=O)O)NC(=O)CNC(=O)[C@H](CCCCNC(=O)CCCCCNC(=O)[C@H](CS)NC(=O)CCCCCNC(=O)CN2CCN(CC(=O)O)CCN(CC(=O)O)CCN(CC(=O)O)CC2)NC(=O)[C@@H](Cc2ccc(O)cc2)NC1=O [gallium-68 labelled], “tumour to muscle ratio” read 2.75 ± 1 (male nude mice, CL1-5 xenograft; 10 min).
CC(C)C[C@H](NC(=O)C[C@H](O)[C@H](CC(C)C)NC(=O)[C@H](Cc1c[nH]cn1)NC(=O)CNC(=O)[C@@H](NC(=O)[C@H](C)NC(=O)[C@H](Cc1c[nH]c2ccccc12)NC(=O)[C@H](CCC(N)=O)NC(=O)[C@@H](Cc1ccccc1)NC(=O)c1ccc(NC(=O)CNC(=O)CCC(C(=O)O)N2CCN(CC(=O)O)CCN(CC(=O)O)CC2)cc1)C(C)C)C(N)=O (stereo partly shown) [fluorine-18 labelled] gave a tumour uptake of 1.8 ± 0.3 %ID/g (gamma counting; nude mice with PC-3 xenograft, tumour; 2 h post injection, together with: AMBA 10 mg/kg blocking).

For quick reference, copied from above:
For CCCC[C@H](NC(=O)CNC(=O)CNC(=O)c1ccc(NN)nc1)C(=O)N[C@H]1CC(=O)NCCCC[C@@H](C(N)=O)NC(=O)[C@H](Cc2c[nH]c3ccccc23)NC(=O)[C@H](CCCNC(=N)N)NC(=O)[C@@H](Cc2ccccc2)NC(=O)[C@H](Cc2c[nH]cn2)NC1=O [technetium-99m labelled], “tumour radioactivity retained” read 93.6% (C57 mice bearing B16/F1 melanoma; dose not given, 4 h post-injection; reference: tumour uptake at 2 h).
